Measurements of several laboratories.
Every numbered part comes from another study and shows a few of its results, in no order. Positions count from the first letter of the parent shown.

Study 1
Target: FOSL1, bZIP domain (human)
Method: DHFR protein complementation
Matrix: yeast
Setting: single substitutions, most at no-binding floor
Baseline: wild-type JUN-FOS pair
Reading: higher = stronger binding
Endpoint: binding fitness
Starting sequence: JUN, bZIP domain (human); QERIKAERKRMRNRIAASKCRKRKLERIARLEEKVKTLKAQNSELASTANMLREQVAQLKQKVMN; partner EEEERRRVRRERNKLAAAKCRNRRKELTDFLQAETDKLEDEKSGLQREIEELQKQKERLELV
L45A: -1.2 natural log
A49D: -1.3 natural log
A49S: -1.14 natural log
R53N: -1.24 natural log
L38W: -1.33 natural log
K39I: -0.601 natural log
K34S: -0.575 natural log
A29N: -0.599 natural log
L38P: -1.44 natural log
A29G: -0.58 natural log
K34C: -0.67 natural log
K36G: -0.714 natural log
T37P: -1.38 natural log
A29K: -0.52 natural log
A49I: -0.866 natural log
I28H: -0.663 natural log
Q41P: -1.26 natural log

Study 2
Target: Histone acetyltransferase KAT6A, winged helix 1, GST fusion (KAT6A, Homo sapiens, UniProt Q92794, residues 1-85)
Method: protein binding microarray
Molecule type: double-stranded DNA, one strand shown
Matrix: in vitro
Tested at: not given
Setting: 8-mer, flanks averaged, mean of 2 arrays, mostly near background
Baseline: not given
Reading: higher = stronger binding
Endpoint: E-score
Residues (chain): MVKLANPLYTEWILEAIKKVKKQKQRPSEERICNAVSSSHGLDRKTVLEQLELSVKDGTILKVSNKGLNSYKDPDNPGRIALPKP
GCCTTGAC: -0.0465
TACTTCAA: -0.235
AAGGCACA: -0.19
AGAAATTA: -0.1
GAACACCA: -0.228
CATTTCCA: -0.171
CATGCTCC: -0.107
ACACACTG: -0.011
ACCCCACG: -0.0717
ATCCTAGA: 0.0318
CACTCGCC: 0.113
AGCTGTAT: -0.216
AAGCACTC: 0.017
GCGAGATA: -0.0106
ATCGTGCC: 0.0571
GCCGGCAA: 0.421
ACACGAAG: -0.0464
ACGGCGGG: 0.451
CGGTATAA: 0.0736
AGTTTTGC: 0.0871
GTTGGGTA: -0.12
CACTGCTA: -0.141
GTTTGGCA: -0.155

Study 3
Target: RING finger protein unkempt homolog, zinc fingers 1-6, GST-SBP tag (UNK, Homo sapiens, UniProt Q9C0B0, residues 30-357)
Method: RNA Bind-n-Seq
Molecule type: RNA
Matrix: in vitro
Tested at: not given
Setting: RNA with constant flanks, human and mouse sites, ends assumed
Baseline: input RNA pool
Reading: higher = stronger binding
Endpoint: bound/input enrichment
Shared flanks, not repeated: GGGAGUUCUACAGUCCGACGAUC … CAACAGAGGAUUGAGCAUCA
Construct (chain): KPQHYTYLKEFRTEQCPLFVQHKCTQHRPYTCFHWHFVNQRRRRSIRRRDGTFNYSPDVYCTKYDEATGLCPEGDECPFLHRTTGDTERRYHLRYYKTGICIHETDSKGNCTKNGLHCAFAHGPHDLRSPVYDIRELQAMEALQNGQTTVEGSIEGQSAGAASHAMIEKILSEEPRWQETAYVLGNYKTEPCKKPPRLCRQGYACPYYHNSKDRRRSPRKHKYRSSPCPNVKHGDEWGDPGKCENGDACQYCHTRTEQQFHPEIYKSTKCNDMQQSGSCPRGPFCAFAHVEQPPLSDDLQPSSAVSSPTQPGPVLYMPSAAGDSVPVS
AGAGCUGGAAGUGGCCCGGUGCUGUUUCUGCUUUGGUCCAGAUGGAGAAGACACUGAAGAGCAGCAGAACGUCAAGAAGGGACCCAGGGUGAUUUAUGAUGAGAAGAAAGGCACCGUGUA: 0.243 ratio
CAGACUGGCAACUGUUUUGUAGCAAGAGCCAUAGGUAGCCUUACUACUUGGGCCUCUUUCUAGUUUUGAAUUAUUUCUAAGCCUUUUGGGUAUGAUUAGAGUGAAAAUGGCAGCCAGCAA: 0.767 ratio
AGGAGCCAGGAGAGGCGGGCGGGUCCCUAACGCUCGCAUUUGGGUAAAAGUCGCACGGAGUAGCAGCGUCUGUUCUGCACCAACUCAGAGUCUUGUUGGAGCUUUAUCCCUUUGUCCUAG: 0.14 ratio
AUAUCCUUGUCAGGUGAGAACAGGAAGGCGCCUCUCAGAGUGGCCCUCAGAACUGUCUGAAUGUCAACAAGAGCACUGUUACGUGUGCACCGCAGAAGAGGAGCCUCUGGAAAUUGCUCG: 0.12 ratio
GGGCUGCUGUGCGAGUUCAGUGAUCGAAGGCUUUUGGACAAGUGGGUGGAGCUGAGGACCACAGUGGCCCACUGCAUCUCUGUGAGCCAAGACUACAUCUUCUGUGGCUGUGCUGAUGGC: 0.143 ratio
GUCAUACAUAUUAAUGACCUGACAGUUAACAUUCUGUUGUUUAUUAUUGCCUUUCUCCACCUUAGAGAGCCAUAAAUAACUCUCUGGUGAAGUGAUUUGCUAUAAUGGGGGUGAGGAGUG: 0.476 ratio
UCAUCAAAGAUAUUGUCUGCUGAAAGUUCAUCUAGUACAGAAACUUCGGUGGUCAGCAGUAGUUCAGUUUCUAAUGCCACUUUUUCUGGAACUCCUCCACAGCCUACAAGUCGGAGACAA: 0.245 ratio
GACCCAAGUAAUCCAAUUCGAAGACCAAUUUCAGCAGACAGCGCCAUCAUGAAUCCAGCUAGCAAAGUAAUUGCACUGAAAGCUGGGAAAACUCUUCAGAUUUUUAACAUUGAAAUGAAA: 0.414 ratio
ACCUGAUCCUUUACCCGAAAAAAUAAGAGGAUAUCAAGAGGCUGAAAGAAUAUUUUCAGAAGCAUAGACUCUUCGGAGGAUACUGCAGUUCAUGAGAUCUCAAGGUACAUGUGACAACGC: 0.14 ratio
CUUUGCGAGCAGAAACGGGAGACCUGUGCAGAUGGUGAGGCAGCAGGCUGCACUAUCAACAAUAGCCUAUCCAACAUCCAGUGGCUUCGAAAGAUGAGUUCUGAUGGACUGGGCUCCCGC: 0.0772 ratio
AACAAUCUUCUGGAUGGUGGUAAGGUCUUUUUUAGCAAACACAGUAAAGAGCUUAUUUCAUUUCUGAUGCUUUCAAGGGCAUAUUCCAAAGUAUCACAGAUGUCAAAUAGAAUAUGCUAU: 0.543 ratio

Study 4
Target: Sal-like protein 4, full length isoform A (SALL4, Homo sapiens, UniProt Q9UJQ4, residues 1-1053)
UniProt Q9UJQ4, sequence (whole entry, looked up): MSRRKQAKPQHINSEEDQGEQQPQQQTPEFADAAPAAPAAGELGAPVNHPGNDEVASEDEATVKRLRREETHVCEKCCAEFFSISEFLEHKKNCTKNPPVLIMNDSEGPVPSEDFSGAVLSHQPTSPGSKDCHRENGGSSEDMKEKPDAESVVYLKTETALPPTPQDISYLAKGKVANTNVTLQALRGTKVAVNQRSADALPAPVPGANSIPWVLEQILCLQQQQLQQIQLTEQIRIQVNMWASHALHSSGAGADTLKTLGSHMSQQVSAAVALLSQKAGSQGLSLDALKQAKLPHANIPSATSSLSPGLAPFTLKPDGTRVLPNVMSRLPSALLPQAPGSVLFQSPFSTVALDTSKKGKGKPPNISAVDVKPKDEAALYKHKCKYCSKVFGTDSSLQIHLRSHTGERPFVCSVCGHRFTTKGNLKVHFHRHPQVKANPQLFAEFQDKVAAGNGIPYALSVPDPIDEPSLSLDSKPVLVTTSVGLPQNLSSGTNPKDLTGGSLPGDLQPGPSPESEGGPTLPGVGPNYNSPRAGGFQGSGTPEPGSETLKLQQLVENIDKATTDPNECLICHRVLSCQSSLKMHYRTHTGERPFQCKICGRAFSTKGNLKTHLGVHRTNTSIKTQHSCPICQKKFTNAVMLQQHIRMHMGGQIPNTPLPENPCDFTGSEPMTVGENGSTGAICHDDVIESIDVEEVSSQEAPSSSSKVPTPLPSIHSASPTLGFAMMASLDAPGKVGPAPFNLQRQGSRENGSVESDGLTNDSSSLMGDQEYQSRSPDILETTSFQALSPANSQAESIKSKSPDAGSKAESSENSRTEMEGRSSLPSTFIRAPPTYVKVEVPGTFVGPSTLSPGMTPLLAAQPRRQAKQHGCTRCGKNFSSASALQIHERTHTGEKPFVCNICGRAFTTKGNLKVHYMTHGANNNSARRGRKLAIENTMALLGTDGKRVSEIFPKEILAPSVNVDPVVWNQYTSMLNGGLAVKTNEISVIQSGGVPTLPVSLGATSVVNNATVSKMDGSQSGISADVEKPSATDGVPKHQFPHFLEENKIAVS
Method: universal PBM
Molecule type: double-stranded DNA, one strand shown
Matrix: in vitro
Tested at: 600 nM
Setting: 8-mer, flanks averaged, mean of replicates
Reading: higher = stronger binding
Endpoint: E-score
CGTATACG: 0.0483
GCCAATGA: -0.148
AAGTGCCT: -0.162
ATCCAATC: 0.126
GACGACGC: -0.227
CAGGCGTC: -0.36
CGGGCTGC: -0.317
ATATCTTC: 0.311
GTGCCAGA: -0.18
CTACAAAA: 0.195
GAGAGGGA: -0.14
AGTCAACA: 0.169
CAGTTCTA: 0.0336
CATGTTCA: 0.107
ATCATAGA: 0.292
CTAAAACA: 0.0895
CTGCACCA: -0.143

Study 5
Target: CCND1, cyclin fold, Cln2 fusion (human)
Method: yeast growth competition, sequencing
Matrix: yeast
Setting: weak parent motif
Baseline: not given
Reading: higher = stronger binding
Endpoint: normalised enrichment score
Starting sequence: ORC1 docking peptide (human); PRARKRLELGNLG
PRARKRLELFNLG [G10F]: 0.329
PRARKRLELANLG [G10A]: -0.205
PRARKRLELGDLG [N11D]: 0.0724
PRARKRLELGNQG [L12Q]: -0.391
PRAKKRLELGNLG [R4K]: -0.644
PRARKRLETGNLG [L9T]: -0.617
PRARKHLELGNLG [R6H]: -0.0337
PRARKRLWLGNLG [E8W]: 0.308
PRARKRLELGSLG [N11S]: 0.216
PRARMRLELGNLG [K5M]: -0.307
PRARKREELGNLG [L7E]: -0.0974
PRARKRLELGWLG [N11W]: 0.366
PRARKILELGNLG [R6I]: 0.33
PRARKRLLLGNLG [E8L]: 0.222
PRARKRLELGNNG [L12N]: -0.0392
PRARDRLELGNLG [K5D]: -0.364
PIARKRLELGNLG [R2I]: 0.477

Study 6
Target: RNA binding protein fox-1 homolog 2, RRM domain, GST-SBP tag (RBFOX2, Homo sapiens, UniProt O43251-10, residues 100-194)
Method: RNA Bind-n-Seq
Molecule type: RNA
Matrix: in vitro
Tested at: 365 nM
Setting: natural RNA segment, single round, ends assumed
Baseline: no-protein control
Reading: higher = stronger binding
Endpoint: RBNS enrichment (R)
Shared flanks, not repeated: GGGAGUUCUACAGUCCGACGAUC … UGGAAUUCUCGGGUGCCAA
Residues (chain): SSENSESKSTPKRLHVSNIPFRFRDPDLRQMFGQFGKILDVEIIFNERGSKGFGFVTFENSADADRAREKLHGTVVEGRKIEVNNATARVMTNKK
UAACUUAUUGUUCAUAUUCAUUUCUAAGUUAAUUUAAGUAAUCAUUUAUUAAGACAGAAUUUUGUAUAAACUAUUUAUUGUGCUCUCUGUGGAACUGAAGUUUGAUUUAU: 1.06
AUUUCUUUGUCCUAGACUUUACAAAUUUUUCAAAACUGUAACUUUAUUUUAAACUUGUGUAUCACAACUUGGUUGAUAUGCCUAAAAUGAUCUACUGGCUUUUGCUUAUG: 0.46
GGAGAGUGGCUGGAUGGCUUUGGCUGCCCUGUAGCCUACCUGUGGCAGCAUACUGUGCCAGCCAUGCACUGUAUUAGGGAGGGGGAUGUCAACAGCCUUGGUUGAGGUGG: 0.643
UAUUACUAUUUAUUGUUAAUAUCAUGGUCAUCUGAAGUUAAGUACUGGGAUAUAUUUUUCUAAUUUCUAGUGAUCUUAGUAUGCAUAUUUUUUUCUAACCUUUCAAAAGU: 0.68
CCUAUAGUCCCAGCUAUUCGGGAGGCUGAGGCAAGAGAAUUGCUUGAACCCGGGAGGUGGAGGUCGCAGUGAGCUGAGAUCCUGCCACUGCACUCCAACCUGGGGGUAAC: 0.466
CAGCCAUGGGAGGCAGCCUGCAUACCUGGAAGCCAGCUGCACAGUGCUGUGGGGAAACAGAAGCGUUACAGACCGGGCCAGGCUGCCUGGCUGCUGCUCCCUCUGGGCUC: 0.537
GUGGGGCGGGGAAGUGCUCUAACUUUUCUUAAGGUUUUGUUGCUAGCCCUUCAAGUGCACUGAGCUAUGUGACUCGGAUGGUCUUUCACACGGCACAUUUGGACAUUUCC: 0.295
CUGUACCACUCCCAGAGGUCUGAGCAGGCCACAGAUAGCCCCCACCUUGCAGAGCAGGAAGUUUAGCCAGGCUCGAGUGUAUCCCCUCCAGCCCUGGCAAAGGGCUUCUG: 0.252
CUCUGCAUGGCACAUGGUCAAGGAAACUGUCCUUGGCUCAGACAGACCUGGGGUGGUGGGCAUCUGGCUGAACCUUGAGGAGGGAAAGCUUGCCUUCUAUUCAGUGGACA: 0.814
UUUUGAUUCAGAAAUAUAUGAAAUCUGCAUAGUCUUAAUUUGUAAAAAAUAAAGAAAAUUCCUUAACCUUUCCUGGUGUUUGUGUUAAAUUCAAGGGUACAGCUGGUCAU: 0.49
UAGAAACGUGUAUAUUUUUUAUGAAACAUUACAGUUAGAGAUUUUUAAAUAAAGAAUUUUAAAACUCUUUUUGUAUUCAUUUAUUCAAGCACUUAGGCAGUCUUUCAUAG: 0.688
UAACCGUGGGCCGGGACCUUAAGGCCUCUGUGUGGCAGAAGGAUCAGCUGGUGACACAGCUGCACUGGCAAGAAAAUGGACCCACCUUUUCCAGCACACCUUACCGCUAC: 0.208
